# Earlier results as cited in several papers.
# Numbered parts are unrelated; values within a part may stem from several laboratories. pEC50, pIC50, pKd: −log10 of the molar value.

# Sample 1
# Organism: Cryptosporidium parvum
# Method: high-throughput screen
# Tested at: concentration not given
Compound,activity
C/C=C1\[C@H]2C=C(C)C[C@]1(N)c1ccc(=O)[nH]c1C2,inactive
CC(=O)OCC(=O)[C@@]12OC3(CCCC3)O[C@@H]1C[C@H]1[C@@H]3CCC4=CC(=O)C=C[C@]4(C)[C@@]3(F)[C@@H](O)C[C@@]12C,inactive
CC(=O)Nc1nnc(S(N)(=O)=O)s1,inactive
CC(CN1c2ccccc2Sc2ccccc21)N(C)C.Cl (centres unmarked),inactive
Cn1c(=O)c2[nH]cnc2n(C)c1=O,inactive
CC1(C)S[C@@H]2[C@H](NC(=O)Cc3ccccc3)C(=O)N2[C@H]1C(=O)[O-].[K+],inactive
C[C@@H](c1ncncc1F)[C@](O)(Cn1cncn1)c1ccc(F)cc1F,inactive
CCOC(=O)C1=C(C)NC(C)=C(C(=O)OCC)C1c1ccccc1/C=C/C(=O)OC(C)(C)C,inactive
CCOC(=O)N1CCC(=C2c3ccc(Cl)cc3CCc3cccnc32)CC1,inactive
CCCN1CCCC[C@H]1C(=O)Nc1c(C)cccc1C,inactive
CC(=O)OCC(=O)[C@@]1(O)CC[C@H]2[C@@H]3C[C@H](C)C4=CC(=O)C=C[C@]4(C)[C@H]3[C@@H](O)C[C@@]21C,inactive
CC(=O)[C@H]1CC[C@H]2[C@@H]3CCC4=CC(=O)CC[C@]4(C)[C@H]3CC[C@]12C,inactive
Nc1ncnc2c1ncn2[C@@H]1O[C@H](CO)C[C@H]1O,inactive
COc1ccc2cc(CCC(C)=O)ccc2c1,inactive
CN1[C@@H]2C[C@@H](OC(=O)[C@H](CO)c3ccccc3)C[C@H]1[C@@H]1O[C@@H]12,inactive
CCN(CC)CCOC(=O)c1ccc(N)cc1,inactive
C[C@H]1O[C@H](O[C@H]2[C@H](O)[C@@H](O)[C@@H](O[C@H]3[C@H](O)[C@@H](O)C(O)O[C@@H]3CO)O[C@@H]2CO)[C@H](O)[C@@H](O)[C@@H]1N[C@H]1C=C(CO)[C@@H](O)[C@H](O)[C@H]1O (some centres unmarked),inactive
N[C@H](Cc1cc(I)c(Oc2ccc(O)c(I)c2)c(I)c1)C(=O)O,inactive
Cc1ncc([N+](=O)[O-])n1CC(O)CCl (centres unmarked),inactive
CCc1c(C)[nH]c2c1C(=O)C(CN1CCOCC1)CC2 (centres unmarked),inactive
CC(C)(C)NCC(O)c1cc(O)cc(O)c1 (centres unmarked),inactive
CCCCC1=NC2(CCCC2)C(=O)N1Cc1ccc(-c2ccccc2-c2nnn[nH]2)cc1,inactive
CC(C)(C)NC(=O)[C@@H]1CN(Cc2cccnc2)CCN1C[C@@H](O)C[C@@H](Cc1ccccc1)C(=O)N[C@H]1c2ccccc2C[C@H]1O,inactive
COc1cc2nc(N3CCN(C(=O)c4ccco4)CC3)nc(N)c2cc1OC,inactive
COC(=O)Nc1nc2cc(C(=O)c3ccc(F)cc3)ccc2[nH]1,inactive

# Sample 2
# SMILES: Cc1cc(Nc2nccc(C)n2)cc(-c2cnc([C@@]3(O)CC[C@H](C(=O)O)C(C)(C)C3)s2)c1
target,observed,notes,pIC50
JAK2,,kinase panel,6.62
SYK (human),enzyme activity,,9.05
FER,,kinase panel,6.63

# Further values, each from its own experiment
SMILES,target or system,assay,test system,setting,scale,quantity,value
C[C@@H](O)[C@H](NC(=O)c1ccc(C#Cc2ccc(CN3CCOCC3)cc2)cc1)C(=O)NO,Aquifex aeolicus LpxC,,,,,residence time,> 24 h
[O-][S+](CCN1CCN(CC(O)Cc2ccccc2)CC1)C(c1ccc(F)cc1)c1ccc(F)cc1 (centres unmarked),,,mouse liver microsomes,1 h,,remaining compound,4%
CCc1c2c(nc3ccc(OC(=O)N4CCC(N5CCCCC5)CC4)cc13)-c1cc3c(c(=O)n1C2)COC(=O)[C@]3(O)CC,,,"human, gastric or gastro-oesophageal junction adenocarcinoma","dose not given, trial",,progression-free survival,2.6 months
CO[C@@H](C)Cn1c(=O)n(C)c2cnc3ccc(-c4cncc(C(C)(C)O)c4)cc3c21,,,human,"20 to 325 mg, doses combined, geometric mean",,half-life,1.82 h
C=CC(=O)Nc1ccc(OC)c(Nc2cc(-c3[nH]c(SC)nc3-c3cccc(NC(=O)c4c(F)ccc(O)c4CN4C(=O)c5ccccc5C4=O)c3)ccn2)c1,Ba/F3 expressing EGFR L858R,cell growth,,,,pEC50,5.92
O=C(Oc1ccccc1)c1ccccc1,,logD7.4 calibration curve,,,,logP,3.6
O=c1[nH]c(=O)n([C@@H]2O[C@H](CO)[C@@H](O)[C@@H]2F)cc1[125I],,,1-octanol/0.1 M NaH2PO4,pH 7.47,,logP,0.05
Cc1cc(-c2nccc3c2ccn3CC(=O)Nc2ccc(-c3cnccn3)cn2)ccn1,,,dog,"10 mg/kg/day, 1 month, repeat dosing",,"Cmax, total",3.2 µM
CCOc1cc2ncc(C#N)c(Nc3ccc(OCc4ccccn4)c(Cl)c3)c2cc1NC(=O)/C=C/CN(C)C,,,human,"240 mg, single dose",,half-life,13.9 h
C=C1C(=O)[C@]23[C@H](O)[C@H]1CC[C@H]2[C@@]12CO[C@]3(O)[C@@H](O)[C@@H]1C(C)(C)CC[C@@H]2O,NLRP3 inflammasome,,THP-1,together with: LPS and ATP,,pIC50,5.28
C[C@]12C=CC(=O)N[C@@H]1CC[C@@H]1[C@@H]2CC[C@]2(C)[C@@H](C(=O)Nc3cc(C(F)(F)F)ccc3C(F)(F)F)CC[C@@H]12,,,n-octanol/water,,,logP,5.09
CC(=O)c1c(C)c2cnc(Nc3ccc(N4CCNCC4)cn3)nc2n(C2CCCC2)c1=O,,,human,"125 mg, single dose",,half-life,25.9 h
CNc1ccc(-c2nc3ccccc3s2)cc1,amyloid-beta aggregates,"binding, fluorescence saturation binding",,,,pKd,5.28
COc1ccc(Cl)cc1C(=O)NCCc1ccc(S(=O)(=O)NO)cc1,NLRP3 inflammasome,inhibitor,J774.A1,together with: LPS + ATP,,pIC50,5.07
CC(=O)N[C@@H](CS)C(=O)O,,,human,,,intestinal first-pass extraction,68%
C=CC[C@@H]1/C=C(\C)C[C@H](C)C[C@H](OC)[C@H]2O[C@@](O)(C(=O)C(=O)N3CCCC[C@H]3C(=O)O[C@H](/C(C)=C/[C@@H]3CC[C@@H](O)[C@H](OC)C3)[C@H](C)[C@@H](O)CC1=O)[C@H](C)C[C@@H]2OC,,,healthy human subjects,"oral, 5 mg single dose",,half-life,40.4 h
O=c1[nH]c(=O)n([C@@H]2O[C@H](CO)[C@@H](O)[C@@H]2F)cc1CCC[18F],,,1-octanol/0.1 M NaH2PO4,pH 7.47,,logP,-0.12
Cc1cc2nc3c(=O)[nH]c(=O)nc-3n(C[C@H](O)[C@H](O)[C@H](O)COP(=O)(O)O)c2cc1C,,,aqueous solution,"unbound, ox/hq couple",,two-electron potential,-205 mV
COc1ccc(-c2ccn(CC[C@](C)(C(=O)NO)S(C)(=O)=O)c(=O)c2)c(F)c1,Pseudomonas aeruginosa,,PAO1,,,MIC,0.6 µM
CCN1CCN(Cc2ccc(Nc3ncc(F)c(-c4cc(F)c5nc(C)n(C(C)C)c5c4)n3)nc2)CC1,,,human,"dose not given, potency-adjusted incl active metabolites, together with: rifampin co-administration",,unbound AUC decrease,77%
Cn1c(=O)c2c(ncn2CC(=O)Nc2ccc(-c3ccccc3)nn2)n(C)c1=O,,,"human, advanced cancer","dose not given, phase I trial",relative to: subjects,incidence of anorexia,~25%
CC(=O)O[C@@]12CO[C@@H]1C[C@H](O)[C@@]1(C)C(=O)[C@H](O)C3=C(C)[C@@H](OC(=O)[C@H](O)[C@@H](NC(=O)OC(C)(C)C)c4ccccc4)C[C@@](O)([C@@H](OC(=O)c4ccccc4)[C@H]21)C3(C)C,,,"human, gastric or gastro-oesophageal junction adenocarcinoma","dose not given, trial",,progression-free survival,2.7 months

# Repeated from above (further values, each from its own experiment):
SMILES,target or system,assay,test system,setting,scale,quantity,value
CNc1ccc(-c2nc3ccccc3s2)cc1,amyloid-beta aggregates,"binding, fluorescence saturation binding",,,,pKd,5.28
COc1ccc(Cl)cc1C(=O)NCCc1ccc(S(=O)(=O)NO)cc1,NLRP3 inflammasome,inhibitor,J774.A1,together with: LPS + ATP,,pIC50,5.07
CC(=O)N[C@@H](CS)C(=O)O,,,human,,,intestinal first-pass extraction,68%
C=CC[C@@H]1/C=C(\C)C[C@H](C)C[C@H](OC)[C@H]2O[C@@](O)(C(=O)C(=O)N3CCCC[C@H]3C(=O)O[C@H](/C(C)=C/[C@@H]3CC[C@@H](O)[C@H](OC)C3)[C@H](C)[C@@H](O)CC1=O)[C@H](C)C[C@@H]2OC,,,healthy human subjects,"oral, 5 mg single dose",,half-life,40.4 h
